Published values pooled from the literature.
Every numbered part comes from another study and shows a few of its results, in no order.

Set 1 — technique: RNA Bind-n-Seq; form: RNA; matrix: in vitro; concentration: not given; setting: RNA with constant flanks, ends assumed; relative to: input RNA pool; reading: higher = stronger binding
Target: RING finger protein unkempt homolog, zinc fingers 1-6, GST-SBP tag (UNK, Homo sapiens, UniProt Q9C0B0, residues 30-357)
Target sequence (chain): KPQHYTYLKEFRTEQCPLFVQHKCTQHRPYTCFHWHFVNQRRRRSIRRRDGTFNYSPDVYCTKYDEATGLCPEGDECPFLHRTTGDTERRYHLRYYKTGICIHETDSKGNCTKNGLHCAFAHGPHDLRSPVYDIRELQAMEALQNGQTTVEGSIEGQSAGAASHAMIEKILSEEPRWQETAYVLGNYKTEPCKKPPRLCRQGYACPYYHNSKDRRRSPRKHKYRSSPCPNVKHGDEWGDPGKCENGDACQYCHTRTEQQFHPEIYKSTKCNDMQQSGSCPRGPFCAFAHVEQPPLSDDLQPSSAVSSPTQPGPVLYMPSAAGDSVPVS
Strand	bound/input enrichment
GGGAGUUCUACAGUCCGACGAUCUUGGUUAAUGUGUUAUUUAUUGAGUAUUGUUUGUGCUAAGCAUUGUGUUAGAUUUAAAAAAUCCGUGGAUUGACUCCACUUUGUUGUGUUGUUUUCAUUGUUGAAAAUAAAUAUAACUUUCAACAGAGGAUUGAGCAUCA	2.14 ratio
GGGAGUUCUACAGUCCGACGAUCAAUCCACCUUACAGAGAGGAAGACAUACCAGCUCCCCUAAAUUUGUAUGGCAAAACAAAAUCCGAUGGAGAAAAGGCUGUCCUGGAGAACAAUCUAGGAGCUGCUGUUUUGAGGAUUCCUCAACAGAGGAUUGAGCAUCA	0.116 ratio
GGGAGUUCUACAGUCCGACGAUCCAUGAAGAAAGAACAAUUUUGCCUAUGUCAAGAGCUUUCCGUGGUAAACACCUCUCUUUUACCGUUCGAUUUCCAAACCAGGGCAGGCAAGUAGAUGACUUGGAGGUUUGGUCUCAUACACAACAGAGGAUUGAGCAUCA	0.186 ratio
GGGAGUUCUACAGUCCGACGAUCCGUGCUUUUGAAGACGAUGAUAUCACGCAUGUUGAAGGAAGUGUAGAUCCCAUCCGAGACACCGAGAUAAUUCACGAGGAGCUCCAGCUGAAGGACGAGGAGAUGAUUGGGCCCAUUCUACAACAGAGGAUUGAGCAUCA	0.237 ratio
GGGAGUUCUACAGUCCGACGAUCUUGGAACAGGCUGAUGAAGACUUAGCUACCGGCUUGGCAUUGAUUGACCUGGGUCAGAGUACCGAUAUGAAACUUUUCCCUAAAGGAACUGUAUUUACAGGAAAAUGUGAAACAUCUGGUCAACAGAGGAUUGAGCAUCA	0.0671 ratio
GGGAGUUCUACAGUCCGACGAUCUGUGGCCUCUCUGAAGAAAAAGCCGUAGAGAAAUUUGGGGAAGAAAAUAUUGAAGUUUACCACCGUUUCUUUUGGCCAUUGGAAUGGACAGUCCCAUCCCGGGAUAACAACAAAUGUUAUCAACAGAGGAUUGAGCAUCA	0.0718 ratio
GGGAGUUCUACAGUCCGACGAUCGCUCUGACUGUAUAGAGAGGGGUGUGCACAUAUGUCCCCACCCUCCGGUCUUCCUUUCCUUUCCGGGUGACACUACAGAGUCAUUCAGCCAAAUCCGUCUACUGCCUCUCCUCCUCAGCCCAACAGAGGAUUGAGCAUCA	0.224 ratio
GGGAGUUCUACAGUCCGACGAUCAAACCCCAGGCUGUUUCUUCAUUAAACUCUAGUCAUUCCAGGUCUCAUGGGAAUGAUCACCACCGCAAGGAACAUCAACGCUCCAAAUCACCUCGGGACCCUGAUGCAAACUGGGAUUCUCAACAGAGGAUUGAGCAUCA	0.199 ratio

Set 2 — technique: RNA Bind-n-Seq; form: RNA; matrix: in vitro; concentration: 200 nM; setting: whole 134-nt RNA, ends assumed; together with: 150 mM LiCl; relative to: input library; reading: higher = stronger binding; each molecule: 7-deaza-guanosine replaces G
Target: Fragile X messenger ribonucleoprotein 1, C-terminal low-complexity region (Fmr1, Mus musculus, UniProt P35922)
Strand	log2 enrichment
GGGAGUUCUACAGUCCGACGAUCGUCCUGUGCUACACAUCGUAUGUACCGAAUCGGGUUUUUGGGUUUUUGGUUUUUGGGGAAAGUAUUAUGUUACGCCGUUCGGAUCUGCACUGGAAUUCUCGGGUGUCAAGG	-1.49
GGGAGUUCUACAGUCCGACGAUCUAACUUUAGAGGAGGAUCUGAUGGAUAUGGCAGUGGACGUGGAUUUGGGGAUGGCUAUAAUGGGUAUGAAGGAGGACCUGGAGGUGGCAAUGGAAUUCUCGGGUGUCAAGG	-0.00307
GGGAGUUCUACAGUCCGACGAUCAGUCCUGUGCUACACAUCGUAUGUACCGAAUCGGGGCCCCGGCCCCGGGGCCCCGGGAAAGUAUUAUGUUACGCCGUUCGGAUCUGCACUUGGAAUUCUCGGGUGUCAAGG	-3.36
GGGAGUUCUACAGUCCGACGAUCACCAUGCAGGUGGGCAUCUUUGGGAAGUGGGGCAAGGGGGGGAUAGGGAGGAAAGUAACACUUUGGGAACAGGUGGUCCCAGGUCGUUUCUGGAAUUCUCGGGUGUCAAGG	0.122
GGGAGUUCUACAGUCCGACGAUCACUGAGGUACUGCCCUCCCCUGCCCCCUACCCUCUCCCUUGUCCCUCUACCCCGUUCCUCCCCUUCCCUCCAUUCCCUUUCCCCAACCUGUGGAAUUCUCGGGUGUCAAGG	1.98
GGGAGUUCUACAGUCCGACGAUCAGUCCUGUGCUACACAUCGUAUGUACCGAAUCGGGGUGGGGUUUGGGGAAAAAGGGGAAAGUAUUAUGUUACGCCGUUCGGAUCUGCACUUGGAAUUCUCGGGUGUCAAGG	-1.23
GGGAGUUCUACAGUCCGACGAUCGUCCUGUGCUACACAUCGUAUGUACCGAAUCGGGCCCCCCGGGCCCCCCGGCCCCCCGGAAAGUAUUAUGUUACGCCGUUCGGAUCUGCAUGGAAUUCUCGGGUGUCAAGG	0.894
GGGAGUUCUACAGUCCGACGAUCUCCUGUGCUACACAUCGUAUGUACCGAAUCGGGGAGGGGUUUUUGGGGAAAAAAAGGGGAAAGUAUUAUGUUACGCCGUUCGGAUCUGCAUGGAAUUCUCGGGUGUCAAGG	-0.605

Set 3 — technique: aptamer microarray, sandwich; form: DNA with 2'F-ANA; matrix: in vitro; concentration: 200 nM; together with: Cy3 exosite-II aptamer, 400 nM; reading: higher = stronger binding; strand: GGTTGGTGTGGTTGG
Target: Prothrombin, mature alpha-thrombin (F2, Homo sapiens, UniProt P00734)
Setting: whole 15-mer aptamer, many near background
Modification	mean fluorescence intensity [a.u.]
2'F-ANA at 1 2 6 9 10 11 14 15	50.9
2'F-ANA at 3 5 6 7 12 13 14 15	56.5
2'F-ANA at 1 3 5 6 10 11 12	55.3
2'F-ANA at 2 3 12	1080
2'F-ANA at 4 7 9 12 14 15	121
2'F-ANA at 2 3 4 8 9 10	316
2'F-ANA at 1 4 5 6 8 9 10 13 14 15	48
2'F-ANA at 1 2 3 5 6 7 8 9 11 12 13 15	73.8
2'F-ANA at 2 4 5 7 8 11 12	176
2'F-ANA at 1 3 8 13 14 15	87.5
2'F-ANA at 1 2 3 6 9 12 13 14 15	227
2'F-ANA at 1 2 3 6 8 11 12 14 15	83.8
2'F-ANA at 1 2 8 10 13	81.9
2'F-ANA at 1 2 7 8 9 12 13 14 15	96.6
2'F-ANA at 1 2 3 13	178
2'F-ANA at 2 3 4 5 7 10 11	54.3
2'F-ANA at 2 3 8 9 11 12	847
2'F-ANA at 6 8 9 10 11 14	100

Set 4 — technique: protein binding microarray; form: double-stranded DNA, one strand shown; matrix: in vitro; concentration: not given; relative to: not given; reading: higher = stronger binding
Target: Histone acetyltransferase KAT6A, both winged helices, GST fusion (KAT6A, Homo sapiens, UniProt Q92794, residues 1-181)
Setting: 8-mer, flanks averaged, mean of 2 arrays, mostly near background
Residues (chain): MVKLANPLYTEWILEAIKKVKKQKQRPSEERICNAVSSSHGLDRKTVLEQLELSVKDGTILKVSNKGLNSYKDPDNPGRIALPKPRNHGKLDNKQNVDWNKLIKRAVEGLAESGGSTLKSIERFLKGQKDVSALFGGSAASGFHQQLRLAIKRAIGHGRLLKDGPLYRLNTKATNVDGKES
Strand	E-score
CCGTATTC	0.223
ACGGGAGA	0.18
GGGTCCGA	0.142
CGCTCCCG	0.256
GCAACTGA	0.0701
TATAGATA	0.0118
GATCTCTA	-0.102
AAGTAGCC	-0.171
GATATGCC	0.0476
CGATCTAG	0.0308
GAAAGATC	0.00957
CAAGTTCG	-0.116
GGATACTA	0.00883
GTTTAGTA	-0.0152
TCCGGACA	0.0822
AGTACTAG	-0.0315
ATCGCGCC	0.314
AAGCCTGC	-0.036
AAGAGGGG	-0.218
AGCTGTAT	-0.189

Excerpt of the above (set 2):
Strand	log2 enrichment
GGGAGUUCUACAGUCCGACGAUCACUGAGGUACUGCCCUCCCCUGCCCCCUACCCUCUCCCUUGUCCCUCUACCCCGUUCCUCCCCUUCCCUCCAUUCCCUUUCCCCAACCUGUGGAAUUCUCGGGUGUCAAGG	1.98
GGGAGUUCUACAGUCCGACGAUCAGUCCUGUGCUACACAUCGUAUGUACCGAAUCGGGGCCCCGGCCCCGGGGCCCCGGGAAAGUAUUAUGUUACGCCGUUCGGAUCUGCACUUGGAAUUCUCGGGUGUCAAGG	-3.36
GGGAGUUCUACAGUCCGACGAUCACCAUGCAGGUGGGCAUCUUUGGGAAGUGGGGCAAGGGGGGGAUAGGGAGGAAAGUAACACUUUGGGAACAGGUGGUCCCAGGUCGUUUCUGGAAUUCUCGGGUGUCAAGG	0.122
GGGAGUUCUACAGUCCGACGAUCAGUCCUGUGCUACACAUCGUAUGUACCGAAUCGGGGUGGGGUUUGGGGAAAAAGGGGAAAGUAUUAUGUUACGCCGUUCGGAUCUGCACUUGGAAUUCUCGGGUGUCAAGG	-1.23
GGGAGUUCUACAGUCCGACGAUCUAACUUUAGAGGAGGAUCUGAUGGAUAUGGCAGUGGACGUGGAUUUGGGGAUGGCUAUAAUGGGUAUGAAGGAGGACCUGGAGGUGGCAAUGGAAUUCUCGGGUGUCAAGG	-0.00307
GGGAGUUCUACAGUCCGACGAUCGUCCUGUGCUACACAUCGUAUGUACCGAAUCGGGCCCCCCGGGCCCCCCGGCCCCCCGGAAAGUAUUAUGUUACGCCGUUCGGAUCUGCAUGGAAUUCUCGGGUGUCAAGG	0.894
